# Earlier results, collected from citations in different studies.
# Protocols differ between the studies behind these lines. Numbers after ± are the reported error.
SMILES,tested on,assay,system,setting,endpoint,value
CC(C)(C)c1nc(-c2cccc(NS(=O)(=O)c3c(F)cccc3F)c2F)c(-c2ccnc(N)n2)s1,T98G,,,,IC50,162 µM
C[C@H]1COCCN1c1nc(-c2cnc(N)cc2C(F)F)nc(N2CCOCC2)n1,FaDu,,,,GI50,0.463 µM
CNC(C)C1CCC(N)C(OC2C(N)CC(N)C(OC3OCC(C)(O)C(NC)C3O)C2O)O1 (stereo not drawn),Pseudomonas aeruginosa,,clinical isolate RKI-No_470/12,,MIC,> 8 µg/mL
O=C(c1ccc(Cl)cc1)N(Cc1ccccc1)C1CCCCC1,BV-2,"item: IL-1β, IL-6, TNF-α",,"concentration not given, together with: LPS",cytokine release,decreased
CC1(C)S[C@@H]2[C@H](NC(=O)[C@H](N)c3ccccc3)C(=O)N2[C@H]1C(=O)O,Pseudomonas aeruginosa,,clinical isolate RKI-No_93/12,,MIC,> 16 µg/mL
O=c1[nH]cc(F)c(=O)[nH]1,NCI60 panel,,,mean over panel,GI50,18 µM
CC(=O)c1c(C)c2cnc(Nc3ccc(N4CCNCC4)cn3)nc2n(C2CCCC2)c1=O,A 172,,,,IC50,18.8 µM
OCc1cn(Cc2cccc(Cl)c2)c2ccccc12,most sensitive cancer lines,,,eight of fifty-eight lines,GI50,≤ 0.01 µM
O=C(O)O,human neutrophils,"anion exchange, substrate",,together with: Cl-,Km,4.1 mM
Cc1nc(NC(=O)N2CCC[C@H]2C(N)=O)sc1-c1ccnc(C(C)(C)C(F)(F)F)c1,T98G,,,,IC50,45.5 µM
COc1ccc(-c2coc3cc(O)cc(O)c3c2=O)cc1,Caco-2 monolayers,,,"50 µM, 5 days",TEER increase,≤ 36%
Cc1[nH]c(C)c(-c2ccc(-c3ccc(OC(F)(F)F)cc3)cc2)c(=O)c1Br,Plasmodium falciparum,whole cell extended time,3D7,72 h,IC50,0.04 µM
Nc1cc(C(F)(F)F)c(-c2nc(N3CCOCC3)nc(N3CCOCC3)n2)cn1,LoVo,,,,GI50,0.332 µM
NC1(c2ccc(-c3nc4ccn5c(=O)[nH]nc5c4cc3-c3ccccc3)cc2)CCC1,T98G,,,,IC50,60.4 µM
COc1cc(C(=O)NS(=O)(=O)c2ccccc2C)ccc1Cc1cn(C)c2ccc(NC(=O)OC3CCCC3)cc12,HEK293,"VRAC current, inhibitor",,hypotonic swelling-activated,maximal inhibition,~100%
[Cl-].c1csc([I+]c2cccs2)c1,macrophages,mitochondrial respiration,,,inhibitory concentration,21 µM
CN1CC[C@@H](c2c(O)cc(O)c3c(=O)cc(-c4ccc(C(F)(F)F)cc4Cl)oc23)[C@@H]1CO,CLL cells,,,in vitro,concentration for near-complete apoptosis,≥ 1.5 µM
C[C@@H](O)[C@@H]1NC(=O)[C@H](CCCCN)NC(=O)[C@@H](Cc2c[nH]c3ccccc23)NC(=O)[C@H](Cc2ccc(O)cc2)NC(=O)[C@H](NC(=O)[C@H](Cc2ccc([N+](=O)[O-])cc2)NC(=O)CN2CCCN3CCN(CCCN(CC(=O)O)CC3)CC2)CSSC[C@@H](C(=O)N[C@H](Cc2ccc(O)cc2)C(N)=O)NC1=O [copper-64 labelled],AR-42J,binding,,,Kd,0.026 ± 0.0024 µM
CC(C)(C)c1ccc(O)c(CN(Cc2cc(C(C)(C)C)ccc2O)C2CCC(NC(N)=O)CC2)c1 (stereo not drawn),HMC3,,,"concentration not given, together with: thrombin",PAR-1 expression,decreased
Cc1[nH]c(C)c(-c2ccc(-c3ccccc3Cl)nc2)c(=O)c1Br,Plasmodium falciparum,whole cell extended time,3D7,72 h,IC50,0.17 µM
O=C(Nc1nc2ccccc2[nH]1)c1ccccc1,PPC-1,,,"5 µM, PubChem AID 1447",response,60%
Cc1c(C#N)cccc1[C@@H](C)Nc1nnc(C)c2cnc(N3CCOCC3)cc12,HT115,3D cell viability,,7 d,IC50,> 1 µM
COc1cc2ncnc(Nc3ccc(F)c(Cl)c3)c2cc1OCCCN1CCOCC1,NCI60 panel,cell growth,,,mean TGI,19 µM
O=C1CCC(N2C(=O)c3ccccc3C2=O)C(=O)N1 (stereo not drawn),Hs Sultan,cell proliferation,,100 µM,inhibition,20%

# A few entries again:
SMILES,tested on,assay,system,setting,endpoint,value
O=C(Nc1nc2ccccc2[nH]1)c1ccccc1,PPC-1,,,"5 µM, PubChem AID 1447",response,60%
Cc1c(C#N)cccc1[C@@H](C)Nc1nnc(C)c2cnc(N3CCOCC3)cc12,HT115,3D cell viability,,7 d,IC50,> 1 µM
COc1cc2ncnc(Nc3ccc(F)c(Cl)c3)c2cc1OCCCN1CCOCC1,NCI60 panel,cell growth,,,mean TGI,19 µM
